Measured values from different studies.
Compare with care: the assays were run in different laboratories. Numbers after ± are the reported error.
UniProt Q16539, sequence (whole entry, looked up): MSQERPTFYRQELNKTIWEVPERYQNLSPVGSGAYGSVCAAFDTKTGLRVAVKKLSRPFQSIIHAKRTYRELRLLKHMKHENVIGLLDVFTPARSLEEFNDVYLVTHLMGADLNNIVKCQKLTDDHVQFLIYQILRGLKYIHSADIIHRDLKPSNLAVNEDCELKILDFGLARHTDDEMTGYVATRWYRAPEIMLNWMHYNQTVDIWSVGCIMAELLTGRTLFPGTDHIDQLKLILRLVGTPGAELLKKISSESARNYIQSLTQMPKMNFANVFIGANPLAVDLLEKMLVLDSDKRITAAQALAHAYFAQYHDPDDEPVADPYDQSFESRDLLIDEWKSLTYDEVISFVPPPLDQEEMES
UniProt Q9UHI6, sequence (whole entry, looked up): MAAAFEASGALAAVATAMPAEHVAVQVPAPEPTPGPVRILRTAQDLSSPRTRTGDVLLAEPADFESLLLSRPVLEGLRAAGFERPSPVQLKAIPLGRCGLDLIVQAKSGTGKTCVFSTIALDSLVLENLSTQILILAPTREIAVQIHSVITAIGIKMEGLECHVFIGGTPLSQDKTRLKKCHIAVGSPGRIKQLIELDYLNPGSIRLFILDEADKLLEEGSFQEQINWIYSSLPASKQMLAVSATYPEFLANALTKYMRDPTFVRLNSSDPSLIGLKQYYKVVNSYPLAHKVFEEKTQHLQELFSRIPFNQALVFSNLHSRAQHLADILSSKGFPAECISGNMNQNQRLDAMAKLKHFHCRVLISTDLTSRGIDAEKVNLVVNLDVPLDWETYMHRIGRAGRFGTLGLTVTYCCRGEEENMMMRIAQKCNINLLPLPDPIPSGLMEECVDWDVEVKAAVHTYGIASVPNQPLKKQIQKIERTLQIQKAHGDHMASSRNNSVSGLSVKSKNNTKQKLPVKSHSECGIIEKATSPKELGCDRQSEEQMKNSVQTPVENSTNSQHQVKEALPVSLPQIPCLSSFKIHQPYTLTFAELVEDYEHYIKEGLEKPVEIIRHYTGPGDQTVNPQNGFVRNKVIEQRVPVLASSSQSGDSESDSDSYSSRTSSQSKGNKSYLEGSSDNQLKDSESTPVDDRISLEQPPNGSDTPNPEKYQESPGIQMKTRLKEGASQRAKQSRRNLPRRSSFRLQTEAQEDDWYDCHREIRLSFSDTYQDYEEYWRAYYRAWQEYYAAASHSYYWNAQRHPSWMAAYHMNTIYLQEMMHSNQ
UniProt P11150, sequence (whole entry, looked up): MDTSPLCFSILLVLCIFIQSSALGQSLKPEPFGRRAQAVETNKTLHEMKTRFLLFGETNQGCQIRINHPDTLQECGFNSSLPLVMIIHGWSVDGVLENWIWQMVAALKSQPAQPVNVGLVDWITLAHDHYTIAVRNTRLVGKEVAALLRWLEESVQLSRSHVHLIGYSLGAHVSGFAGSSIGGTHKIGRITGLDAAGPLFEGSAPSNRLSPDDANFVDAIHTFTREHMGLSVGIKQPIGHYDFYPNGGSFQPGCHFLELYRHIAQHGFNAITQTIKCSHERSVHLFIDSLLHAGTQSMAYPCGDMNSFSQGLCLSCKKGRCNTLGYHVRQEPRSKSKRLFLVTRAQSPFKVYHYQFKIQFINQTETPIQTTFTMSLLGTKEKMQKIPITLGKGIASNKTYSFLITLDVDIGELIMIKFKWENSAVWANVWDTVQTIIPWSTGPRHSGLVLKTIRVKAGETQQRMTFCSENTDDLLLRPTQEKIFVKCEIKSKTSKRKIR

The IC50 of `Cn1c(=O)ccc2ccc(F)c(CCNC[C@H]3CN(c4ncc5c(n4)NC(=O)CO5)C(=O)O3)c21` is reported as > 120 µM (human DNA topoisomerase II; decatenation activity, inhibitor).
`CC(COc1ccc2c(c1)C(=O)N(CCOC(=O)NCc1cccc(-c3c[nH]cn3)c1)C2C)c1ccccc1` (stereo not shown) gave a maximum proteolysis of ~80% (human transthyretin WIL* T46L/F49Y, fluorescein-labelled; protease sensitivity).
The GI50 of `COc1c(CCC[P+](c2ccccc2)(c2ccccc2)c2ccccc2)cc2c(c1OC)OCO2.[I-]` is reported as -5.61 log M (CAKI-1; SRB).
With `C[N+](C)(C)CCOS(=O)(=O)[O-]` the ΔTm was 7.47 (SAR11_0797 Candidatus Pelagibacter ubique; differential scanning fluorimetry; concentration not given, unit not given; higher = stronger binding).
`Oc1cc(Cl)ccc1Oc1ccc(Cl)cc1Cl` has a cross-reactivity of 100% (bivalent nanobody T1-T1 (Bactrian camel); ELISA, IC50-based; concentration not given, coating antigen T1/H1-BSA).
For `C[C@H](C(=O)N[C@H]1COc2ccccc2[C@@H]1S(C)(=O)=O)c1ccc(F)cc1`, the inhibition was 8% (5-HT1 receptor, rat; binding; 10 µM, Eurofins selectivity panel).
`CSCC[C@H](NC(=O)CNC(=O)[C@H](CC(N)=O)NC(=O)[C@H](CCSC)NC(=O)[C@H](CCSC)NC(=O)[C@H](CCC(N)=O)NC(=O)[C@H](Cc1c[nH]c2ccccc12)NC(=O)[C@@H](N)CCSC)C(=O)N[C@@H](CO)C(=O)N[C@@H](CCC(N)=O)C(N)=O`: “EPR amplitude reduction” ~15% (huntingtin exon 1 bundled fibrils; binding, EPR spin-labeled peptide; 8 µM).
For `CC(C)CC(=O)OC[C@H]1O[C@@](C#N)(c2ccc3c(N)ncnn23)[C@H](O)[C@@H]1O`, the inhibition was 0% (kainate glutamate receptor rat; radioligand binding; 20 µM).
The inhibition of `c1cncc([C@@H]2CCCN2)c1` is reported as -6.93% (sigma receptor 1; radioligand binding; 50 µM).
`OC1CCN(c2ncnc3[nH]cc(-c4cccc(Cl)c4)c23)CC1`: MOB1 phosphorylation “decreased” (MOB1 (human); Western blot, refers to: phospho-MOB1 Thr35; HEK293; concentration not given, together with: H2O2).
`CCCCCCCCCCCCCC(=O)O[C@@H]1[C@@H](C)[C@@]2(O)[C@@H](C=C(CO)C[C@]3(O)C(=O)C(C)=C[C@@H]23)[C@@H]2C(C)(C)[C@]12OC(C)=O` gave an IC50 of 0.00108 µM (mouse phorbol ester receptor; radioligand binding).
`NC(=O)c1ncn([C@@H]2O[C@H](CO)[C@@H](O)[C@H]2O)n1` has an IC50 of 97 ± 33 µM (human cytochrome c oxidase subunit I; refers to: cytochrome c oxidase subunit I; HepG2; 120 h).
With `C[C@H]1CN(c2n[nH]c3nc(N[C@H]4CC[C@H](NS(=O)(=O)CCC(F)(F)F)CC4)ncc23)CCO1` the relative abundance was 1.14 (DDX20 (Homo sapiens, UniProt Q9UHI6); inhibitor, Kinobeads competition profiling; 20 µM; reference: vehicle).
For `c1ccc(C(NCCNC(c2ccccc2)c2ccccc2)c2ccccc2)cc1`, the inhibition was 6% (KATP potassium channel, hamster; binding; 10 µM, Eurofins selectivity panel).
For `CC1=C(/C=C/C(C)=C/C=C/C(C)=C\C(=O)O)C(C)(C)CCC1`, the maximum inhibition was 0% (human coronavirus OC43; virus-induced cell killing; MRC-5; maximum over 10 doses).
For `CN1C(=O)Cc2ccc(F)c(CCNCC[C@H]3CN(c4ccc5c(n4)NC(=O)CO5)C(=O)O3)c21`, the IC50 was 68.6 µM (human DNA topoisomerase II; decatenation activity, inhibitor).
`C=C[C@H]1CN2CC[C@]3(C(=O)Nc4ccccc43)[C@@H]2C[C@@H]1/C(=C\OC)C(=O)OC` gave an inhibition of 36.9% (NLRP3 inflammasome (mouse); mouse BMDM; 10 µM).
`Nc1ccn([C@@H]2O[C@H](CO)[C@@H](O)C2(F)F)c(=O)n1` has a maximum inhibition of 0% (human coronavirus OC43; virus-induced cell killing; MRC-5; maximum over 10 doses).
For `O=C1NC(=O)[C@](CNC(=O)c2cnn(-c3ccccc3)n2)(C2CC2)N1`, activity read “inactive” (kallikrein; concentration not given).
`COc1ncccc1-c1cnn2ccc(N3CCN(C(=O)OC(C)C)CC3)nc12` has an IC50 of 8.3 µM (PDE4; inhibitor).
For `CC[C@H](C)[C@@H]1NC(=O)[C@@H]2CCCN2C(=O)[C@H](CC(C)C)NC(=O)[C@H](CC(C)C)NC(=O)CNC(=O)[C@@H](NC(=O)[C@@H](NC(=O)[C@H](CC(=O)O)NC(=O)CNC(=O)[C@@H](NC(=O)[C@H](C)NC(=O)CNC(=O)[C@H](CCCCN)NC(=O)[C@H](CC(C)C)NC(=O)[C@H](CC(C)C)NC(=O)[C@H](CCCCN)NC(=O)CNC(=O)[C@@H](NC(=O)[C@@H](N)CC(C)C)C(C)C)C(C)C)C(C)C)CSSC[C@@H](C(=O)O)NC1=O`, “log2 fold change” read -1.98 (RNA-seq, refers to: Hck mRNA; mouse traumatic brain injury, frontal cortex and hippocampus; dose not given; reference: TBI plus compound vs TBI).
The IC50 of `COc1cc(Nc2ncc(F)c(Nc3ccc4c(n3)NC(=O)C(C)(C)O4)n2)cc(OC)c1OC` is reported as > 10 µM (PDGF receptor).
`C[n+]1cn([C@@H]2O[C@H](COP(=O)([O-])OP(=O)(O)OP(=O)(O)OC[C@H]3O[C@@H](n4cnc5c(=O)[nH]c(N)nc54)[C@H](O)[C@@H]3O)[C@@H](O)[C@H]2O)c2nc(N)[nH]c(=O)c21` — result for “time to complete hydrolysis”: ≤ 14 h (Saccharomyces cerevisiae Dcs1p; substrate; concentration not given).
`NCC(O)c1ccc(O)cc1` (racemic) gave a ΔTm of 7.7 °C (SAR11_0271 protein (Candidatus Pelagibacter sp.); thermal stabilisation, differential scanning fluorimetry).
`C[C@H](Nc1ncnc2[nH]cnc12)c1nc2ccc(F)cc2c(=O)n1-c1ccccc1` gave an inhibition of 13.2% (NLRP3 inflammasome (mouse); mouse BMDM; 10 µM).
Under “median protein ratio”, `O=C(c1ccc(Cl)cc1)N1CCN2C(=O)N(OC(=O)N3CCOc4ccccc43)C(=O)C2C1` (stereo not shown) is recorded as 1.14 (Hepatic triacylglycerol lipase (Homo sapiens, UniProt P11150); MS-based ABPP; SW-620 conditioned medium; 10 µM, 1 h, 37 °C; reference: compound over DMSO, lower = more inhibition).
With `COc1ccc(N2C(=O)N(c3c(C)cccc3Cl)Cc3cnc(Nc4ccc(C5CCN(C)CC5)cc4OC)nc32)nc1` the inhibition was 98% (MAPK14 (Homo sapiens, UniProt Q16539); kinase activity, inhibitor; 0.5 µM, kinase P38-ALPHA).
`Cn1c(=O)ccc2ccc(F)c(CCNC[C@@H]3CN(c4cnc5c(n4)NC(=O)CO5)C(=O)O3)c21` has an IC50 of > 120 µM (human DNA topoisomerase II; decatenation activity, inhibitor).
For `O=C(O)Cc1c[nH]cn1`, the inhibition was -36% (Nedd8-cullin1 interaction; neddylation, AlphaScreen; 100 µM).
`O=C(Nc1cccnn1)N1CCN([C@@H]2CCOc3cc(C(F)(F)F)ccc32)CC1` has an inhibition of -3% (AMPA; Cerep BioPrint; 20 µM).
Under “AUC antagonist score”, `CC(C)(O)C(=O)Nc1ccc([N+](=O)[O-])c(C(F)(F)F)c1` is recorded as 0.999 (androgen receptor pathway; antagonist; concentration not given; direction not given).
`COc1cc(CCC[P+](c2ccccc2)(c2ccccc2)c2ccccc2)c(OC)c2c1OCO2.[I-]` has a GI50 of -5.62 log M (OVCAR-5; SRB).
For `Nc1ncnc2c1ncn2[C@@H]1O[C@@H]2COP(=O)(O)O[C@H]3[C@@H](O)[C@H](n4cnc5c(=O)[nH]cnc54)O[C@@H]3COP(=O)(O)O[C@H]2[C@H]1O`, “pathway fold enrichment” read 9.82 (HFF-1; RNA sequencing Reactome analysis, refers to: Reactome R-HSA-379716 cytosolic tRNA aminoacylation; together with: West Nile virus infection; reference: West Nile virus infected cells, downregulated pathway).
The IC50 of `O=c1ccn([C@@H]2O[C@H](CO)[C@@H](O)[C@H]2O)c(=S)[nH]1` is reported as > 50 µM (human cytochrome c oxidase subunit I; refers to: cytochrome c oxidase subunit I; HepG2; 120 h).

A few entries again:
The IC50 of `Cn1c(=O)ccc2ccc(F)c(CCNC[C@H]3CN(c4ncc5c(n4)NC(=O)CO5)C(=O)O3)c21` is reported as > 120 µM (human DNA topoisomerase II; decatenation activity, inhibitor).
`O=C(Nc1cccnn1)N1CCN([C@@H]2CCOc3cc(C(F)(F)F)ccc32)CC1` has an inhibition of -3% (AMPA; Cerep BioPrint; 20 µM).
For `C[C@H](C(=O)N[C@H]1COc2ccccc2[C@@H]1S(C)(=O)=O)c1ccc(F)cc1`, the inhibition was 8% (5-HT1 receptor, rat; binding; 10 µM, Eurofins selectivity panel).
For `c1ccc(C(NCCNC(c2ccccc2)c2ccccc2)c2ccccc2)cc1`, the inhibition was 6% (KATP potassium channel, hamster; binding; 10 µM, Eurofins selectivity panel).
The inhibition of `c1cncc([C@@H]2CCCN2)c1` is reported as -6.93% (sigma receptor 1; radioligand binding; 50 µM).
